Results gathered from unrelated publications.
Each line is one published result; not all experiments were run side by side. Several values in a cell are separate wells, animals, samples, runs or records. Numbers after ± are the reported error.
Palmitoyl-protein thioesterase 1: Palmitoyl-protein thioesterase 1 (Homo sapiens, UniProt P50897)
UniProt P50897, sequence (whole entry, looked up): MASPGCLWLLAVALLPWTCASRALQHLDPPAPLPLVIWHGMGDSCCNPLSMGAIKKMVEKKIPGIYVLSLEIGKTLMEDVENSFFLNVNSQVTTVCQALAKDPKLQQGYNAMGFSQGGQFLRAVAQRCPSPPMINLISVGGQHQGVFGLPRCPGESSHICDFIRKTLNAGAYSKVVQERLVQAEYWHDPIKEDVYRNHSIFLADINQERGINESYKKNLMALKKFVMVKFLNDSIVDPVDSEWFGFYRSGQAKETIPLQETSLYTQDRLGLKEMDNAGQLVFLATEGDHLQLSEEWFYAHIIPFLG
Trypanothione synthetase: Trypanothione synthetase (Trypanosoma brucei brucei, UniProt Q586P2)
plsY: Glycerol-3-phosphate acyltransferase (plsY, Streptococcus pneumoniae, UniProt P0A4Q0)
UniProt P26358, sequence (whole entry, looked up): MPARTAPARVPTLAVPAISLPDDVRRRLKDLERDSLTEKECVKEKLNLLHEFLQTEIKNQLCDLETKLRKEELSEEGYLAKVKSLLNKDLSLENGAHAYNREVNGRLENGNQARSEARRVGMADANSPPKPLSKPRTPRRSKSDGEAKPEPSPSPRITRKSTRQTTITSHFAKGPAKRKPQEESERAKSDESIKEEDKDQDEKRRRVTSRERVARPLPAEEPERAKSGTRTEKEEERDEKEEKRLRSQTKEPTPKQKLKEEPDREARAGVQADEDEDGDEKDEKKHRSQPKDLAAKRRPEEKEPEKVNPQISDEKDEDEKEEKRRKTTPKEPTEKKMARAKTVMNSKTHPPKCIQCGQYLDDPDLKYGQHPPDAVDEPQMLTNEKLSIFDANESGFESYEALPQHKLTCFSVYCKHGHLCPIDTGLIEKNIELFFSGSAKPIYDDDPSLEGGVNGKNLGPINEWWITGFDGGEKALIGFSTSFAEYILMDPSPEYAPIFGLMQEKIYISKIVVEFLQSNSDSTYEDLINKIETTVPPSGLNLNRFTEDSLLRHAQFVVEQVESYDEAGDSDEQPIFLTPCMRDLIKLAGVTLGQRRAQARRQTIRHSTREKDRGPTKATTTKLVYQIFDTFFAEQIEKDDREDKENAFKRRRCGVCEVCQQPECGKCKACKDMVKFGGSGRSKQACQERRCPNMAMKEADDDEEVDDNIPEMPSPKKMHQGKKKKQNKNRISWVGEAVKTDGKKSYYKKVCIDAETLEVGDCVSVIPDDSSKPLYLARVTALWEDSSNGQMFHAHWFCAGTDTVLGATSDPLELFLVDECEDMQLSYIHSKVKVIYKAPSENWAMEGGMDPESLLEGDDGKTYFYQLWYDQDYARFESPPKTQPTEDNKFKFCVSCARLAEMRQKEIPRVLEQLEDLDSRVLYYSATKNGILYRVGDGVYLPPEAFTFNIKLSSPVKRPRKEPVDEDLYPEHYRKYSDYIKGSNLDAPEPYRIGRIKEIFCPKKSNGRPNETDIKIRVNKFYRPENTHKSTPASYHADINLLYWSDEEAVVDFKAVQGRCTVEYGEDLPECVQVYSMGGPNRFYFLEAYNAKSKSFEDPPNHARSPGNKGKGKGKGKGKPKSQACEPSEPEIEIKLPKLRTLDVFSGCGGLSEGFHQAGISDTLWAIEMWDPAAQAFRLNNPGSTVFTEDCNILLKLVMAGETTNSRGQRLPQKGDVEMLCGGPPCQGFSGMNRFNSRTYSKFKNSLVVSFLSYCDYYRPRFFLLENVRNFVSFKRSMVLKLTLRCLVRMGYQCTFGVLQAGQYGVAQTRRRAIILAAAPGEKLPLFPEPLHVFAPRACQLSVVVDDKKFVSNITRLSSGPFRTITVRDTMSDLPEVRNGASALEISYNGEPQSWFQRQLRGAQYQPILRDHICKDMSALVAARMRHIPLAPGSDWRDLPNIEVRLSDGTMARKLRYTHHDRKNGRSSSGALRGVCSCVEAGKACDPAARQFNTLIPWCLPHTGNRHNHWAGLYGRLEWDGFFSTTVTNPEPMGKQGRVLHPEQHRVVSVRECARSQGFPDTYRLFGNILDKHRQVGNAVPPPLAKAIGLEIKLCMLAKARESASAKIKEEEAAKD
UniProt P06239, sequence (whole entry, looked up): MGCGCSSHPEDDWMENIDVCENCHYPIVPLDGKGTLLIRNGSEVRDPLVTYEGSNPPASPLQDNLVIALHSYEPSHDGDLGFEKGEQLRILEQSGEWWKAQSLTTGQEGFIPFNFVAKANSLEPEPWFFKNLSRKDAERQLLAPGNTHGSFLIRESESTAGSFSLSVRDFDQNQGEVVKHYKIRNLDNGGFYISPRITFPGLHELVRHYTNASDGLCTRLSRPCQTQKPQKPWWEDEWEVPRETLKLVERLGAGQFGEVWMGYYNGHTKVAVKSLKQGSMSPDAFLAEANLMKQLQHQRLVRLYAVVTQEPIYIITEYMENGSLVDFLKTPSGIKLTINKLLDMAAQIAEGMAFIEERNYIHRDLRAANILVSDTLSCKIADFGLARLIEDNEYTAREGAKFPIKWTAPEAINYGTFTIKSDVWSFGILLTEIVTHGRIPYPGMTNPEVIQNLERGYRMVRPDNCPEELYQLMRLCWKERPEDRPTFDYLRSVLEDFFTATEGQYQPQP
UniProt Q06418, sequence (whole entry, looked up): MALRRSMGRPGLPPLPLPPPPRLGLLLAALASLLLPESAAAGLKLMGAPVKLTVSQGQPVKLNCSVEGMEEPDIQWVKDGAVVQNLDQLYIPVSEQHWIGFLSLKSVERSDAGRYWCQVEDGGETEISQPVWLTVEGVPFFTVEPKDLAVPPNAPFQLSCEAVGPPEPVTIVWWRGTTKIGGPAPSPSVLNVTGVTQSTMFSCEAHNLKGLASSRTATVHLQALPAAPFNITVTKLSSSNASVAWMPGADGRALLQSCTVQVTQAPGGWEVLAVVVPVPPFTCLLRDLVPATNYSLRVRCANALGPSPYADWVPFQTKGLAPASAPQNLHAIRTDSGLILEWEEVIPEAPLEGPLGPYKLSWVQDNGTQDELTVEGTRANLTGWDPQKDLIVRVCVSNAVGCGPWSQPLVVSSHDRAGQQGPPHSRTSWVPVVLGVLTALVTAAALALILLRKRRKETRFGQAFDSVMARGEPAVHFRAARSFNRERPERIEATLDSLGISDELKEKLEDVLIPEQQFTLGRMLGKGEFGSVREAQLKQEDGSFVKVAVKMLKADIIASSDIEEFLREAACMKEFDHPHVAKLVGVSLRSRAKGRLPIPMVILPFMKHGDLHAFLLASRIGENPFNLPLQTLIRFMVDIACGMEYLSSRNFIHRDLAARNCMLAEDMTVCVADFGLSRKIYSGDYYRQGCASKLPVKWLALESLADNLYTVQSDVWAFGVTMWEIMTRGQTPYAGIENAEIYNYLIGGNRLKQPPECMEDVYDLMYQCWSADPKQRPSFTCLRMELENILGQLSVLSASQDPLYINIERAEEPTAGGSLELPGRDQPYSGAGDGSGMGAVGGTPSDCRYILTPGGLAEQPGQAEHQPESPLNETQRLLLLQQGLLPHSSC
UniProt O43603, sequence (whole entry, looked up): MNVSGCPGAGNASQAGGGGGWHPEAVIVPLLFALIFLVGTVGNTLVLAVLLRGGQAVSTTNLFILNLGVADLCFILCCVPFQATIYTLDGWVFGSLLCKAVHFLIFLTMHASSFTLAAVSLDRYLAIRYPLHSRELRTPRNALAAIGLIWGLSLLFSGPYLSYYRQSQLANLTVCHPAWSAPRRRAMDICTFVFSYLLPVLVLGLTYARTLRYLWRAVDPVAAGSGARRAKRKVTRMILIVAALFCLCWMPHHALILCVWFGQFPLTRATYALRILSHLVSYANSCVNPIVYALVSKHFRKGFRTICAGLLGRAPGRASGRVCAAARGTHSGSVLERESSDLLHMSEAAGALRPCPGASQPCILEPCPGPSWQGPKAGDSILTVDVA
UniProt P08908, sequence (whole entry, looked up): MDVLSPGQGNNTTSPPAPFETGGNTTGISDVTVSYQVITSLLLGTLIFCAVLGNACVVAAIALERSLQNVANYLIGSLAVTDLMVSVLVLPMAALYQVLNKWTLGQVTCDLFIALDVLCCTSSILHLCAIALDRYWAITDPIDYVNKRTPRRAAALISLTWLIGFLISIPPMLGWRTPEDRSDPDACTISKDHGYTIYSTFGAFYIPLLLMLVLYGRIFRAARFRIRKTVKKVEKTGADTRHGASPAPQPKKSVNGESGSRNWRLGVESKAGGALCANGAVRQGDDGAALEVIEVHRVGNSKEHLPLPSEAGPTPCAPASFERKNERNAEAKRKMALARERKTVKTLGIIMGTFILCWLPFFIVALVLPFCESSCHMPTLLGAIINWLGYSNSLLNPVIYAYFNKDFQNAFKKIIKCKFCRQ
UniProt P23439, sequence (whole entry, looked up): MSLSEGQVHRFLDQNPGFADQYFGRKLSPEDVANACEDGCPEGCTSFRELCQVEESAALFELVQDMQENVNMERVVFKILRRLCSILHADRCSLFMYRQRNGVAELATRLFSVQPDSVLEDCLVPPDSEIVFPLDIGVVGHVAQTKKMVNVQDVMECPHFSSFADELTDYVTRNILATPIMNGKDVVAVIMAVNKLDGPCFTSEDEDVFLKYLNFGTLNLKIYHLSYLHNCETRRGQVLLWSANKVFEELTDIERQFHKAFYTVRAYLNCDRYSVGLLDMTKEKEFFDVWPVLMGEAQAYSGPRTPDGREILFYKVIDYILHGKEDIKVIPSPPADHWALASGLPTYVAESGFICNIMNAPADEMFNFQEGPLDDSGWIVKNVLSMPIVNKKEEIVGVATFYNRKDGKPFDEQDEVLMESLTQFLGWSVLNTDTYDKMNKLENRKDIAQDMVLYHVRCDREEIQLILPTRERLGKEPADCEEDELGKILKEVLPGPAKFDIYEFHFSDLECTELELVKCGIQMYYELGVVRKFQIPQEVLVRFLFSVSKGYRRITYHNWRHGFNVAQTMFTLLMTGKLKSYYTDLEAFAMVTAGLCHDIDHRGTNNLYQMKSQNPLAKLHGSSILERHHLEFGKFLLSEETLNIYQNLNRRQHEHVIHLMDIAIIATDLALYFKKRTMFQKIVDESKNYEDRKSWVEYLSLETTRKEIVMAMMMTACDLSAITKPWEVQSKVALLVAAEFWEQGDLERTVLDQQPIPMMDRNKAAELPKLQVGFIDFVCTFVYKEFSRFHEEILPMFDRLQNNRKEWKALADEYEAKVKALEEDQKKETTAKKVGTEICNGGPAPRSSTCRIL

`Cc1c2oc3c(C)ccc(C(=O)N[C@@H]4C(=O)N[C@H](C(C)C)C(=O)N5CCC[C@H]5C(=O)N(C)CC(=O)N(C)[C@@H](C(C)C)C(=O)O[C@@H]4C)c3nc-2c(C(=O)N[C@@H]2C(=O)N[C@H](C(C)C)C(=O)N3CCC[C@H]3C(=O)N(C)CC(=O)N(C)[C@@H](C(C)C)C(=O)O[C@@H]2C)c(N)c1=O` has an inhibition of 63.8% (Palmitoyl-protein thioesterase 1; Spectrum Collection screen; concentration not given, added: substrate 20 µM).
For `COc1cc2c(NC3CCN(C)CC3)cc(-c3ccc(C)o3)nc2cc1OCCCN1CCCC1`, the inhibition was -8.89% (DNMT1 (Homo sapiens, UniProt P26358); enzyme activity; 45.72 nM).
With `O=C(Nc1cnccc1Cl)N1CCN(Cc2ccc3c(c2)OC(F)(F)O3)CC1` the inhibition was 5% (AVPR1B (Homo sapiens, UniProt P47901); binding; 50 µM, added: [3H][Arg8]vasopressin).
`CCc1cc(=O)[nH]c(-n2nc(C)cc2NC(=O)c2cc(C)ccc2F)n1`: inhibition “no inhibition” (LCK (Homo sapiens, UniProt P06239); radiometric kinase; 10 µM).
For `Cc1[nH]c2ccc(F)cc2c1CC(=O)N1CCN(c2ncccn2)CC1`, the inhibition was 27 ± 28.4% (Trypanothione synthetase; enzyme activity, BIOMOL Green phosphate release; 25 µM).
For `CN1CCN(c2nc(N)c3ccccc3n2)CC1`, the inhibition was 11.9% (HTR1A (Homo sapiens, UniProt P08908); radioligand binding, radioligand competition binding; 0.1 µM, first replicate; relative to: control specific binding).
`CN1CCN(c2cc(-c3ccncc3)c(-c3ccc4ccccc4c3)nn2)CC1` gave an inhibition of -7.6% (GALR2 (Homo sapiens, UniProt O43603); antagonist, FLIPR; 10 µM).
For `c1ccc(C(NCCNC(c2ccccc2)c2ccccc2)c2ccccc2)cc1`, the inhibition was 3% (PDE6A/PDE6B (Bos taurus, UniProt P11541+P23439); enzyme activity; 10 µM, Eurofins selectivity panel).
`COCc1c(-c2cc3cc(C)cc(OC)c3s2)c2c(N)ncnn2c1CN1CCNC(=O)C1` has an inhibition of 75% (15-lipoxygenase; enzyme activity; 10 µM).
`O=c1ccc2ccccc2o1` has an inhibition of 2.24% (voltage-gated potassium channel; radioligand binding, antagonist; 10 µM).
`COc1cc(Nc2ncc(F)c(Nc3ccc4c(n3)NC(=O)C(C)(C)O4)n2)cc(OC)c1OC` has an inhibition of 61% (TYRO3 (Homo sapiens, UniProt Q06418); kinase binding, KINOMEscan; 10 µM).
`O=C(CCCCCCCCCCOc1ccccc1)NP(=O)(O)O` gave an inhibition of 47% (plsY; inhibitor; 200 µM).
`O=C(Cc1c[nH]c2cc(Cl)ccc12)N1CCC(n2ccnc2)CC1` gave an inhibition of 38.1 ± 7.2% (Trypanothione synthetase; enzyme activity, BIOMOL Green phosphate release; 25 µM).
With `C[C@H](N)Cn1ncc2ccc3c(c21)CCCO3.Cl` the inhibition was 57% (sigma receptor (non-selective); radioligand binding; 10 µM).
For `COc1cc2c(cc1OC)CN(C(=O)COC(=O)c1cn(C)c3ccccc13)CC2`, the inhibition was 33.7 ± 6.1% (Trypanothione synthetase; enzyme activity, BIOMOL Green phosphate release; 25 µM).
`FC(F)(F)c1cccc(Nc2nc(NCCOc3ccccc3)nc3[nH]cnc23)c1` has an inhibition of 7% and 5% (Cyclin-dependent kinase 2, with cyclin A (CDK2, Homo sapiens, UniProt P24941); enzyme activity, inhibitor, Thermo Fisher kinase screening; 5 µM).
`O=C(O)c1nccnc1NC(=O)c1cccc2ccccc12` has an inhibition of 74.4% (panD (Mycobacteroides abscessus, UniProt B1MGV7, S136A); 200 µM).
With `CCCCCCCCCCCCCCCC(=O)NP(=O)(O)O` the inhibition was 75% (plsY; inhibitor; 200 µM).
`COC(=O)c1ccc(OP(=O)(Oc2ccc(C(=O)OC)cc2)C(CCc2c[nH]c3ccccc23)NC(=O)OCc2ccccc2)cc1` (racemic) has an inhibition of 70.3 ± 0.6% (Structural polyprotein, capsid protease (O'nyong-nyong virus, UniProt P22056); protease activity, irreversible covalent inhibitor; 100 µM, 30 °C, CP Δ2 construct, 1% DMSO, added: H-Gly-Glu-Ser-Glu-Val-Trp-ACC, 50 µM).
With `CCCCCCCCCCCC(=O)C(F)(F)P(=O)(O)O` the inhibition was 48% (plsY; inhibitor; 200 µM).
For `CN(C(=O)n1cnc(-c2ccc[n+]([O-])c2)c1)C1CCCCC1`, the inhibition was 2% (GRM2 (Homo sapiens, UniProt Q14416); radioligand binding; 50 µM, added: [3H]LY341495).
The inhibition of `Cn1cccc1-c1cccnc1` is reported as -12.5% (HTR2C (Homo sapiens, UniProt P28335); binding; 50 µM).
For `O=C(Cc1ccc2c(c1)CCCC2)NCc1ccc(N2CCCC2)nc1`, the inhibition was 18.6 ± 5.6% (Trypanothione synthetase; enzyme activity, BIOMOL Green phosphate release; 25 µM).
The inhibition of `C=CCCCCCCCCC(=O)C(F)(F)P(=O)(O)O` is reported as 14% (plsY; inhibitor; 200 µM).
The inhibition of `O=C(Nc1cccnn1)N1CCC(=Cc2cccc(Oc3ccc(C(F)(F)F)cn3)c2)CC1` is reported as 6.2% (Monoacylglycerol lipase ABHD6 (Abhd6, Rattus norvegicus, UniProt Q5XI64); probe labelling, inhibitor, competitive ABPP with azido-FP probe, item: ABHD6; rat brain membrane fraction; 0.1 µM).
With `COc1ccc(N2C(=O)N(c3c(C)cccc3Cl)Cc3cnc(Nc4ccc(C5CCN(C)CC5)cc4OC)nc32)nc1` the inhibition was 5.41% (RPS6KA4 (Homo sapiens, UniProt O75676); kinase activity, inhibitor; 0.5 µM, MSK2).
For `C=CC[C@]1(O)CC[C@H]2[C@@H]3CCC4=CC(=O)CCC4=C3C=C[C@@]21C`, the inhibition was 66.8% (Palmitoyl-protein thioesterase 1; Spectrum Collection screen; concentration not given, added: substrate 20 µM).
`Cc1ncc(C)n2nc(/C=C/c3nc(N4CCCC4)cc(N4CCOCC4)n3)nc12` has an inhibition of -11% (catechol O-methyltransferase; enzyme activity; 10 µM).
For `O=C(CCCCCCCCCCOc1ccccc1)CP(=O)(O)O`, the inhibition was 48% (plsY; inhibitor; 200 µM).
`CN(CCN1CCC(OC(=O)Nc2ccccc2-c2ccccc2)CC1)C(=O)c1ccc(CN2CCC(C(N)=O)CC2)cc1` gave an inhibition of 3% (adenylyl cyclase; enzyme activity; 1 µM).
For `C[C@H]1N=C(c2ccccc2F)c2cc(Br)ccc2-n2cnc(C(=O)O)c21`, the inhibition was -15.5 ± 10.7% (sigma receptor 2; binding; 10 µM).

Excerpt of the above:
`O=C(Cc1c[nH]c2cc(Cl)ccc12)N1CCC(n2ccnc2)CC1` gave an inhibition of 38.1 ± 7.2% (Trypanothione synthetase; enzyme activity, BIOMOL Green phosphate release; 25 µM).
`Cc1ncc(C)n2nc(/C=C/c3nc(N4CCCC4)cc(N4CCOCC4)n3)nc12` has an inhibition of -11% (catechol O-methyltransferase; enzyme activity; 10 µM).
For `COc1cc2c(cc1OC)CN(C(=O)COC(=O)c1cn(C)c3ccccc13)CC2`, the inhibition was 33.7 ± 6.1% (Trypanothione synthetase; enzyme activity, BIOMOL Green phosphate release; 25 µM).
